# Published values pooled from the literature.
# Numbered parts are unrelated; each lists some results of a single study. Values joined by “and” are separate records of one study, mostly repeats; a detail may differ.

# Block 1
# Technique: ultracentrifugation
# Matrix: mouse plasma
# Concentration: 2 µM
# Time: 4 h
# pH: 7.4
SMILES,fraction unbound
Cc1ccc(O)c(C)c1-c1cnc2[nH]c(-c3cnc(N4CCC(CCN5CCN(c6ccc(NC7CCC(=O)NC7=O)cc6F)CC5)CC4)nc3)cc2c1C#N (stereo not shown),0.01
Cc1ccc(O)c(C)c1-c1cnc2[nH]c(-c3cnc(N4CCC(CN5CCN(c6ccc7c(c6)C(=O)N(C6CCC(=O)NC6=O)C7=O)CC5)CC4)nc3)cc2c1C#N (stereo not shown),0.006
Cc1ccc(O)c(C)c1-c1cnc2[nH]c(-c3cnc(N4CCC(CN5CCC(c6ccc(NC7CCC(=O)NC7=O)cc6F)CC5)CC4)nc3)cc2c1C#N (stereo not shown),0.024
Cc1ccc(O)c(C)c1-c1cnc2[nH]c(-c3cnc(N4CCC(CN5CCN(c6cc7c(cc6F)c(N6CCC(=O)NC6=O)nn7C)CC5)CC4)nc3)cc2c1C#N,0.013
Cc1ccc(O)c(C)c1-c1cnc2[nH]c(-c3cnc(N4CCC(CN5CCN(c6ccc7c(c6F)CN(C6CCC(=O)NC6=O)C7=O)CC5)CC4)nc3)cc2c1C#N (stereo not shown),0.009
Cc1ccc(O)c(C)c1-c1cnc2[nH]c(-c3cnc(N4CCC(CN5CCN(c6ccc7c(c6)CN(C6CCC(=O)NC6=O)C7=O)CC5)CC4)nc3)cc2c1C#N (stereo not shown),0.028

# Block 2
# SMILES: C[C@@H]1CN(c2ccc(-c3cc(C(=O)NCCOCCOCCOCCOCCNC(=O)/C=C/c4[nH]cc(C(=O)N[C@@H](CC(N)=O)c5ccc(F)c(Cl)c5)c4-c4ccc(Cl)cc4F)ccc3F)cc2NC(=O)c2c[nH]c(=O)cc2C(F)(F)F)C[C@H](C)N1C
# Observed: thermal unfolding
# Technique: differential scanning fluorimetry
# Concentration: 5.5 µM
# Direction: higher = more unfolded
# DCAF1: DDB1- and CUL4-associated factor 1 (DCAF1, Homo sapiens, UniProt Q9Y4B6)
# Sequence of UniProt Q9Y4B6 (whole entry, looked up): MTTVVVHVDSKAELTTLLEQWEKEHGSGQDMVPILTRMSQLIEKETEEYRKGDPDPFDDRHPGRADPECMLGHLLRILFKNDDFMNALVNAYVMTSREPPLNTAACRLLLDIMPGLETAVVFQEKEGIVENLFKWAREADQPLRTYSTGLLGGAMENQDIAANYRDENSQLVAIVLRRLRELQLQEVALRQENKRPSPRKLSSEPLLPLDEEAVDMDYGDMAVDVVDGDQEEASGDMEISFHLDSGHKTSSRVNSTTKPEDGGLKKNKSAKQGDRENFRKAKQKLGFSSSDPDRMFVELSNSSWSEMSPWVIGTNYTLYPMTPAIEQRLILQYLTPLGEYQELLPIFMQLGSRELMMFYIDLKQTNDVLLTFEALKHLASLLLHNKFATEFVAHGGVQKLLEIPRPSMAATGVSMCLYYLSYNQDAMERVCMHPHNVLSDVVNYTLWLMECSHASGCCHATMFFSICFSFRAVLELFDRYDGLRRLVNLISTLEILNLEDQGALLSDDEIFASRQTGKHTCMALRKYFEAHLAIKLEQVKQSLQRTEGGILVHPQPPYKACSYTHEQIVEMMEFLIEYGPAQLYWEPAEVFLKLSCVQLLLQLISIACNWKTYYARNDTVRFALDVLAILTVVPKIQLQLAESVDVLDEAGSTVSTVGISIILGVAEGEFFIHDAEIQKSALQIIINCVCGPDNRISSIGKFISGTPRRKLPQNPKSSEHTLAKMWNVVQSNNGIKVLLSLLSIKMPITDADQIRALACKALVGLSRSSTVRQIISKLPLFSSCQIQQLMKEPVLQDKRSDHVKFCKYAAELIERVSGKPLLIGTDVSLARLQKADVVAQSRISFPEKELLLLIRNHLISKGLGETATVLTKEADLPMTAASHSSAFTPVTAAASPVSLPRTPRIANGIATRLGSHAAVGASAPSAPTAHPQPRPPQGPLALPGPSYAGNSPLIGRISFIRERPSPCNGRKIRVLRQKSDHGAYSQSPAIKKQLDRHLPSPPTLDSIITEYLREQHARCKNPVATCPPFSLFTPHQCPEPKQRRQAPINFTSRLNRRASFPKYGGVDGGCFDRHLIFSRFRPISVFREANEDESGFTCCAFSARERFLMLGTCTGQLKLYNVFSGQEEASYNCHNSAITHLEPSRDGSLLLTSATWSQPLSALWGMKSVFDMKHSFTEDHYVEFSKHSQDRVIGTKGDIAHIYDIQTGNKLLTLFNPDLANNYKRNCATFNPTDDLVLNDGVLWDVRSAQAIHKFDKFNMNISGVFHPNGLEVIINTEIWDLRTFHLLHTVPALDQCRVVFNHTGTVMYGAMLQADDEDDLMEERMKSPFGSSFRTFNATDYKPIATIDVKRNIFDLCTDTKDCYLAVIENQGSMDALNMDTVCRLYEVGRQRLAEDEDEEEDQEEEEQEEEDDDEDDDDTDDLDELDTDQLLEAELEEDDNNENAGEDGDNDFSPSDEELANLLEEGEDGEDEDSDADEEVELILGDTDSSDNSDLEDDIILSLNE
# WDR5: WD repeat-containing protein 5 (WDR5, Homo sapiens, UniProt P61964)
target,temperature,SYPRO Orange fluorescence [a.u.]
DCAF1,90.21 °C,34800
WDR5,41.6 °C,14500
WDR5,75.81 °C,27800
DCAF1,62.21 °C,50900
WDR5,94.81 °C,45400
DCAF1,27 °C,8860
DCAF1,82.01 °C,43100
DCAF1,93.01 °C,31600
WDR5,72.41 °C,20100
WDR5,66.21 °C,14000
DCAF1,60.01 °C,40700

# Block 3
# Compound: Cc1ncsc1-c1ccc(C(CO)NC(=O)C2CC(O)CN2C(=O)C(C(C)C)n2cc(-c3ccc(COc4c(-c5c(C)c(F)cc6[nH]ncc56)c(C5CC5)cc5c(N6CC7CC6CN7)nc(OC6CCOCC6)nc45)cc3)nn2)cc1 (stereo not shown)
# Observed: cell growth or viability
# Technique: ATP luminescence
# Time: 6 days
cell line,concentration,viability
PSN1,3 nM,92.4% and 124% and 84.6% and 81.4%
HPAC,3 nM,79.9% and 73.4% and 57.9% and 84.6%
SW-403,10 nM,88.9% and 83.8% and 93% and 88.5%
PK-59,0.3 µM,5.14% and 7.08% and 4.81% and 7%
HT-29,30 nM,87.4% and 90.3% and 93.1% and 118%
PaTu 8902,30 nM,97.6% and 101% and 102% and 110%
NCI-H358,1 µM,5.39% and 4.22% and 4.78% and 3.54%
NCI-H358,3 nM,99% and 107% and 95.2% and 88.4%
BXPC-3,3 nM,101% and 88.5% and 103% and 107%
HCT-116,10 µM,9.72% and 8.01% and 9.84% and 6.08%

# Block 4
# Target: Sodium-dependent neutral amino acid transporter B(0)AT1 (SLC6A19, Homo sapiens, UniProt Q695T7)
# Sequence of UniProt Q695T7 (whole entry, looked up): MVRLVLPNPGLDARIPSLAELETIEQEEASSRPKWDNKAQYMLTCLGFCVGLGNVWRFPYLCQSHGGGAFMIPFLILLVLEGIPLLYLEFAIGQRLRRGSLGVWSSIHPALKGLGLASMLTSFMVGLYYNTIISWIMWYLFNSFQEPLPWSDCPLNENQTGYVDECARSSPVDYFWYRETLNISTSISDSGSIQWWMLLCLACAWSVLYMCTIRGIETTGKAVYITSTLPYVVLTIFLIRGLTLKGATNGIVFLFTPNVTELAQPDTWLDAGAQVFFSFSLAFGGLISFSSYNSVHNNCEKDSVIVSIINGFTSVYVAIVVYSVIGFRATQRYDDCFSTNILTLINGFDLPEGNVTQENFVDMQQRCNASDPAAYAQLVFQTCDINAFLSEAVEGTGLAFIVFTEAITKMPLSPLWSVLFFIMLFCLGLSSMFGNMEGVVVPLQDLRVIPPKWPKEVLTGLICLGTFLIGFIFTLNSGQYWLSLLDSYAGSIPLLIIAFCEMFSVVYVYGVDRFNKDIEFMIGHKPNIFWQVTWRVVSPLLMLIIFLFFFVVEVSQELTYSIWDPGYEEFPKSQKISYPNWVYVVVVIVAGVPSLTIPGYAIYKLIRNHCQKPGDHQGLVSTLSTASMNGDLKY
# Technique: FLIPR membrane potential
# Cells: CHO-BC
# Concentration: concentration not given
# Relative to: 100 µM cinromide set to 0
SMILES,remaining activity
Cc1cc(OCC(=O)NCCCO)cc(C)c1Cl,103%
Cc1cc(OCC(=O)NCc2ccccc2)cc(C)c1Cl,102%
Cc1cc(OC(C)(C)C(=O)NC(C)C)cc(C)c1Cl,128%
CCC(C)NC(=O)COc1cc(C)c(Cl)c(C)c1 (racemic),108%
CCCCCCCCNC(=O)COc1cc(C)c(Cl)c(C)c1,105%
CC(C)NC(=O)COc1ccc(I)cc1,16.9%
Cc1cc(OCC(=O)NC(C)C)cc(C)c1Cl,37.9%
CC(C)NC(=O)COc1ccc(Br)cc1,15.6%
Cc1cc(OC(C)C(=O)NC(C)C)cc(C)c1Cl (racemic),77.5%
Cc1cc(OCC(=O)Nc2ccccc2)cc(C)c1Cl,109%
CON(C)C(=O)COc1cc(C)c(Cl)c(C)c1,109%
Cc1cc(Cl)ccc1OCC(=O)NC(C)C,81.6%
CCCCCCNC(=O)COc1cc(C)c(Cl)c(C)c1,110%

# A few entries again (block 2):
target,temperature,SYPRO Orange fluorescence [a.u.]
DCAF1,62.21 °C,50900
WDR5,94.81 °C,45400
